# Assay results pooled from the literature.
# Parts stem from different laboratories: compare values within a part only.
# Chain of UniProt Q86YV6 (whole entry, looked up): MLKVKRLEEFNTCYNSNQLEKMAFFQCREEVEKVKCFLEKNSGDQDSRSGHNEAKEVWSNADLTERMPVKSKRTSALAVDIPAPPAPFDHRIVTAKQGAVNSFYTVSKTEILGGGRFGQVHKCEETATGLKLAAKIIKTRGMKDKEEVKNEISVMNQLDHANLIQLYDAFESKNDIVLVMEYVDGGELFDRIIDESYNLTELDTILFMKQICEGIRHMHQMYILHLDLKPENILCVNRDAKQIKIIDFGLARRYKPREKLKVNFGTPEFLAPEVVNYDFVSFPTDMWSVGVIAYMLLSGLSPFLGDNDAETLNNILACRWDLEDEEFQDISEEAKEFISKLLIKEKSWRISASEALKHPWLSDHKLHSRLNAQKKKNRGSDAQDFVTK
# Chain of UniProt Q9BYP7 (whole entry, looked up): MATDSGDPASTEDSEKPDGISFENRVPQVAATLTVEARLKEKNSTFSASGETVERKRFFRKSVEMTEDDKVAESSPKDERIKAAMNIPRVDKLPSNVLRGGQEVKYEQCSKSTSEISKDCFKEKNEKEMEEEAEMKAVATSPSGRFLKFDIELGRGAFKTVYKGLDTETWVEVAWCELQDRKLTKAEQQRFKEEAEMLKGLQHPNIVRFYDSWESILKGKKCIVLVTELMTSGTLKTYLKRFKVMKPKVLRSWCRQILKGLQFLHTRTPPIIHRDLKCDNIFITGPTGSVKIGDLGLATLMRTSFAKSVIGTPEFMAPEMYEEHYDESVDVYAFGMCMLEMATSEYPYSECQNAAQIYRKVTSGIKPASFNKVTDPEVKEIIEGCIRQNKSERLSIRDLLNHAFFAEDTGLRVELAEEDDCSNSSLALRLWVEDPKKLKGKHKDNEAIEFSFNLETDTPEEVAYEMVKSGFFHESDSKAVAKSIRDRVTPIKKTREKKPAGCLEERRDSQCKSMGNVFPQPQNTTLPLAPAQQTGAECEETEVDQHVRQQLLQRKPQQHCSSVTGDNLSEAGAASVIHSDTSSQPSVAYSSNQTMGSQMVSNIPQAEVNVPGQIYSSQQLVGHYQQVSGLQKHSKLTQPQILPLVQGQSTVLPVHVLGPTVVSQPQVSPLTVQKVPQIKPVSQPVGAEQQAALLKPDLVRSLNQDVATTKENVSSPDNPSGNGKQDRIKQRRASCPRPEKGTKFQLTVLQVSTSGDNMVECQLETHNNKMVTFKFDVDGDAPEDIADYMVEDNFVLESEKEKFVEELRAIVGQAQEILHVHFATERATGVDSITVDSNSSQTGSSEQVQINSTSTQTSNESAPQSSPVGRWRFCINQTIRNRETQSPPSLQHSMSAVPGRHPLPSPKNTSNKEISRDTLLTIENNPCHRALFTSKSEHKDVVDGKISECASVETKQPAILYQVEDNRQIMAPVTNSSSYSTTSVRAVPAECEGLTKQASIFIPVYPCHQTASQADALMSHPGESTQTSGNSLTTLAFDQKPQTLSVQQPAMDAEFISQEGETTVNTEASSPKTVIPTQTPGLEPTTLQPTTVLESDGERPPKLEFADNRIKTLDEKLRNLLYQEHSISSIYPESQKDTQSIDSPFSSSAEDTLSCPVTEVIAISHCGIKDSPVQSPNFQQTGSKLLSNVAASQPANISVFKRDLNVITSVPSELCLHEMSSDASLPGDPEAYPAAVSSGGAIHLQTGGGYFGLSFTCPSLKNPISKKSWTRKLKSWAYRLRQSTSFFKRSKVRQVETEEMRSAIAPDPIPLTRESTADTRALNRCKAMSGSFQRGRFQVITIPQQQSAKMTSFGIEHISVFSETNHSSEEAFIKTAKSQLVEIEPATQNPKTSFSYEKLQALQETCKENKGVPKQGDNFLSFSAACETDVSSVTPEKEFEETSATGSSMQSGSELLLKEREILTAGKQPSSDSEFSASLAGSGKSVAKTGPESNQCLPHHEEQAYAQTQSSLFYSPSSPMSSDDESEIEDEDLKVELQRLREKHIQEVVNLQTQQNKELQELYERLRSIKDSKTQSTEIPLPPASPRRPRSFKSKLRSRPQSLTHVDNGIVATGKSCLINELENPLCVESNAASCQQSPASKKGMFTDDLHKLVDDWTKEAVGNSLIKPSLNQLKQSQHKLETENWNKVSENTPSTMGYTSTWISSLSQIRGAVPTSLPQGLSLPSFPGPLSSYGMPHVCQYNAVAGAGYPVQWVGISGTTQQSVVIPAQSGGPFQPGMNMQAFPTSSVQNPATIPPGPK
# Chain of UniProt Q9H3Y6 (whole entry, looked up): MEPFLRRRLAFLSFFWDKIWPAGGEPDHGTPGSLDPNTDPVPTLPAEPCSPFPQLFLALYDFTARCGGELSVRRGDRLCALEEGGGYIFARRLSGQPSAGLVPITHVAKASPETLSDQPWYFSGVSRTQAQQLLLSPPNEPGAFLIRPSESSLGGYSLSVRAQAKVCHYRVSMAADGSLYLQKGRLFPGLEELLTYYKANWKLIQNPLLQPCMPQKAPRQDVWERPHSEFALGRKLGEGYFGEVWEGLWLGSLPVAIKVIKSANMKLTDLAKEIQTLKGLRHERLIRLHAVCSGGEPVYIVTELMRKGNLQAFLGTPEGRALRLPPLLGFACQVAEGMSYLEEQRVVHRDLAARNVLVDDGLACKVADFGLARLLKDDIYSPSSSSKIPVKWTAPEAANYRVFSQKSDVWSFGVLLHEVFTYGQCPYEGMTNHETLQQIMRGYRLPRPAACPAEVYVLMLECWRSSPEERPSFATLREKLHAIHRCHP
# Chain of UniProt Q96L34 (whole entry, looked up): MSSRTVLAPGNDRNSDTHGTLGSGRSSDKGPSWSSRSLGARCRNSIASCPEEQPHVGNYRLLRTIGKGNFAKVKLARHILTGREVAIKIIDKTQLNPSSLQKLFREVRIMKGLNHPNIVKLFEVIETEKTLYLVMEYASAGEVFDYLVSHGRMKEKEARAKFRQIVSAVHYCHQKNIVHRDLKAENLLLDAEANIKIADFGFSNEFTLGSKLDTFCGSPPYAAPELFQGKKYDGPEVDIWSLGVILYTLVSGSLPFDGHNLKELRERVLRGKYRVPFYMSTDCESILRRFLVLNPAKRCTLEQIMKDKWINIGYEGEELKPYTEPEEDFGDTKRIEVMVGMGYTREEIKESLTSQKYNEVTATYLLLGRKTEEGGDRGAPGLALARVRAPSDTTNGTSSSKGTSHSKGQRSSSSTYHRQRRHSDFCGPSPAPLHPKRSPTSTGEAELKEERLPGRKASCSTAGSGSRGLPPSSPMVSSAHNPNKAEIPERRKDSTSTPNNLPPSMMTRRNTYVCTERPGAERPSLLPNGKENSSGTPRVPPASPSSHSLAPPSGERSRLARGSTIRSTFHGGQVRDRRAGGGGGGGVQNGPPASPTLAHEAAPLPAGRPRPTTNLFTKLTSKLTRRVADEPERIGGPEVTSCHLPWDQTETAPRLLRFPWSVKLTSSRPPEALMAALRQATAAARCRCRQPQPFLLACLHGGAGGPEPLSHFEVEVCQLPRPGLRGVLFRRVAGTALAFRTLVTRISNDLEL
# Chain of UniProt P30530 (whole entry, looked up): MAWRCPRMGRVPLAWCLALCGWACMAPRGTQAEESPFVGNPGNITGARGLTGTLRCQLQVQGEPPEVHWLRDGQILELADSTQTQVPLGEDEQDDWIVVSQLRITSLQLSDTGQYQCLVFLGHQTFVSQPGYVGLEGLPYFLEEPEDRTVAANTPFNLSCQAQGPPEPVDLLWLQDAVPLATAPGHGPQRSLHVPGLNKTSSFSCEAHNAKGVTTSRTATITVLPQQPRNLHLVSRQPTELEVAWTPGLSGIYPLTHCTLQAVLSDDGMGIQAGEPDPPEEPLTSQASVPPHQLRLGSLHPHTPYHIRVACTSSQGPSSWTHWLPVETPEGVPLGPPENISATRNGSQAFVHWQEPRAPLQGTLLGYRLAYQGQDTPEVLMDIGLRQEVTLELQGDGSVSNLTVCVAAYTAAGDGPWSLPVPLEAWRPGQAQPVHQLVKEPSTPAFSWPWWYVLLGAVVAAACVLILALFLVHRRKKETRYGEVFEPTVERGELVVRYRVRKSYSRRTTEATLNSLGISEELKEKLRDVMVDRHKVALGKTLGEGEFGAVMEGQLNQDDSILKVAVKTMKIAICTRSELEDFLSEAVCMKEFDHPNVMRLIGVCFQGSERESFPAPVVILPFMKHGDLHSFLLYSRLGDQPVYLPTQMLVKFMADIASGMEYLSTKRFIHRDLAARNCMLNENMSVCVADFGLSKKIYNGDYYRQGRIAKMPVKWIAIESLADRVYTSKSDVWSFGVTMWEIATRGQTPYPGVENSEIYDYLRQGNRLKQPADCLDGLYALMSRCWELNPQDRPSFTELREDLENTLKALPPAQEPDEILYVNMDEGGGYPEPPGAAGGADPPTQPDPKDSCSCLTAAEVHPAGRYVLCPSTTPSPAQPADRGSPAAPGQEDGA
# Chain of UniProt P42681 (whole entry, looked up): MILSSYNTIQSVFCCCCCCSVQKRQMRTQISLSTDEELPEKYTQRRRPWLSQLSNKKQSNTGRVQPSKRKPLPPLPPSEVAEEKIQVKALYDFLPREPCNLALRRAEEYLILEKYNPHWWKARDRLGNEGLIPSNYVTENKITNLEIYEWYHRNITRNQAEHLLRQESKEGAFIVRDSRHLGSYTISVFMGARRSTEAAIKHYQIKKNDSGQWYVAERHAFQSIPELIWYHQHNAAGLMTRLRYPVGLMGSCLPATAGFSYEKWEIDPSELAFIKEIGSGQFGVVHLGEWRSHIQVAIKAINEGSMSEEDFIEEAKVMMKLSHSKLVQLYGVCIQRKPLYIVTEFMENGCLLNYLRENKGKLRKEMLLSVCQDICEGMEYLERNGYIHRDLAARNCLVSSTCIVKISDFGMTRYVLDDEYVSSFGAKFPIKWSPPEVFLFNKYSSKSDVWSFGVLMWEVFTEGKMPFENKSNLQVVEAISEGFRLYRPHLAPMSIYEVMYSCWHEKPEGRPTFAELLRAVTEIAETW

# Set 1 — technique: RNAcompete; molecule type: RNA; matrix: in vitro; concentration: 20 nM; notes: 7-mer, probes averaged, single round; reference: mean of 7-mers; direction: higher = stronger binding
# Target: PABPC1L2, full length, GST fusion (mouse, UniProt A0ABA7IW68)
Oligonucleotide,7-mer Z-score
CGCAAGC,-0.38
ACUGUAA,0.0605
UGGUCCA,-0.144
AUACCUU,-0.291
UUCAAAC,-0.146
AUUAUGC,-0.161
CUGAUCG,-0.249
UGGAGUU,-0.204

# Set 2 — Compound: CSc1cccnc1N1CCN(Cc2nc3ccccc3[nH]2)CC1; technique: competition with immobilised ligand; concentration: 1 µM
target,observed,remaining binding [%]
"MYLK4 (Homo sapiens, UniProt Q86YV6)",cell-free assay,100
"DMPK (Homo sapiens, UniProt Q09013)",cell-free assay,81
"STK10 (Homo sapiens, UniProt O94804)",cell-free assay,87
"MARK4 (Homo sapiens, UniProt Q96L34)",cell-free assay,100
"GSK3B (Homo sapiens, UniProt P49841)",cell-free assay,78
"PIK3CA (Homo sapiens, UniProt P42336, Q546K)",cell-free assay,84
"TXK (Homo sapiens, UniProt P42681)",binding,100
"SRC (Homo sapiens, UniProt P12931)",cell-free assay,100
"MAP2K4 (Homo sapiens, UniProt P45985)",cell-free assay,89
"MET (Homo sapiens, UniProt P08581, Y1235D)",cell-free assay,89
"WEE1 (Homo sapiens, UniProt P30291)",cell-free assay,100
"WNK3 (Homo sapiens, UniProt Q9BYP7)",cell-free assay,100
"MELK (Homo sapiens, UniProt Q14680)",cell-free assay,46

# Set 3 — Structure (SMILES): O=C1Cc2c([nH]c3ccc(Br)cc23)-c2ccccc2N1; observed: enzyme activity; action: inhibitor; concentration: 0.5 µM; reference: control
target,remaining activity [%]
"TSSK2 (Homo sapiens, UniProt Q96PF2)",99.3
"MAP4K4 (Homo sapiens, UniProt O95819)",6.61
"AXL (Homo sapiens, UniProt P30530)",101
"Cyclin-dependent kinase 4, with cyclin D3 (CDK4, Homo sapiens, UniProt P11802)",89
"SRMS (Homo sapiens, UniProt Q9H3Y6)",105
"RPS6KA6 (Homo sapiens, UniProt Q9UK32)",95.9

# Further values, each from its own experiment
Substance,organism,observed,concentration,measurement,result
medroxyprogesterone,Sarcocystis neurona,parasite growth,10 µM,inhibition,13.7%

# Some of these lines once more (set 1):
Oligonucleotide,7-mer Z-score
UGGUCCA,-0.144
CUGAUCG,-0.249
